Assay results pooled from the literature.
Compare with care: the assays were run in different laboratories. Several values in a cell are separate wells, animals, samples, runs or records. Numbers after ± are the reported error.

C=Cc1c(C)c2cc3nc(c(CC(=O)[O-])c4[n-]c(cc5nc(cc1[n-]2)C(C)=C5CC)c(C)c4C(=O)[O-])C(CCC(=O)[O-])C3C.[Cu+2].[Na+].[Na+].[Na+] (centres unmarked) — blood urea nitrogen (Wistar rat, female; oral, 250 mg/kg daily, 28 days): 22.3 ± 3.39 mg/dL
O=C1NC2(CC2)COc2ncc(F)cc2[C@H]2COCCN2c2ccn3ncc1c3n2 — haemoglobin (Sprague-Dawley rat, male, blood; oral, 2.5 mg/kg/day, 4 weeks, end of treatment, subacute toxicity): 142 ± 9 g/L
C=CC(=O)Nc1cccc(Cn2ncc3cnc(Nc4cnn(CCOC)c4)nc32)c1 — MCHC (Sprague-Dawley rat female, blood; oral, 180 mg/kg, day 28, 28-day subacute toxicity): 372 ± 5.98 g/L
CC[C@H](C)[C@H](NC(=O)[C@H](CCCCN)NC(=O)CNC(=O)[C@H](CC(C)C)NC(=O)[C@H](Cc1ccccc1)NC(=O)[C@H](CCCCN)NC(=O)[C@H](CO)NC(=O)[C@H](Cc1ccccc1)NC(=O)[C@H](Cc1c[nH]c2ccccc12)NC(=O)[C@H](CCC(N)=O)NC(=O)[C@@H](NC(=O)[C@H](Cc1ccccc1)NC(=O)CCCCCNC(=O)CN1CCN(CC(=O)O)CCN(CC(=O)O)CCN(CC(=O)O)CC1)C(C)C)C(=O)N[C@@H](CCC(=O)O)C(=O)N1CCC[C@H]1C(=O)N[C@@H](CC(=O)O)C(=O)N[C@H](C(=O)N[C@@H](CO)C(=O)N[C@@H](CCC(N)=O)C(=O)N[C@H](C(=O)N[C@@H](CCC(N)=O)C(=O)N[C@@H](CC(=O)O)C(=O)N1CCC[C@H]1C(=O)N[C@@H](CC(N)=O)C(=O)N[C@@H](CC(=O)O)C(=O)N[C@@H](CCC(N)=O)C(=O)N[C@@H](Cc1ccc(O)cc1)C(=O)N[C@@H](CCC(=O)O)C(=O)N1CCC[C@H]1C(=O)N[C@@H](Cc1ccccc1)C(=O)O)C(C)C)C(C)C [copper-64 labelled] — SUVmean (dynamic PET; mouse, CT26 tumour, checkpoint inhibitor-treated, tumour; intravenous, 100 µCi/mouse, 3100 s): 4.76 SUV
C#Cc1c(F)ccc2cc(O)cc(-c3ncc4c(N5CC6CCC(C5)N6C(=O)OC(C)OC(=O)CC)nc(OC[C@@]56CCCN5C[C@H](F)C6)nc4c3F)c12 (some centres unmarked) — compound remaining (chemical stability; simulated intestinal fluid; 1 µM, 30 min): 96.4%
CC(=O)NCCCC[C@@H]1NC(=O)[C@H](Cc2c[nH]c3c(C)cccc23)NC(=O)[C@H]([C@@H](C)O)NC(=O)[C@H](CC(N)=O)NC(=O)[C@@H](NC(C)=O)C(C)(C)SSC(C)(C)[C@@H](C(=O)N[C@@H](Cc2ccc(OCCN)cc2)C(=O)N[C@@H](Cc2ccc3ccccc3c2)C(=O)NC2(C(=O)N[C@@H](CCC(=O)O)C(=O)N[C@@H](CC(N)=O)C(=O)N[C@@H](Cc3cccnc3)C(=O)N(C)CC(N)=O)CCOCC2)NC1=O — tissue to plasma ratio (cynomolgus monkey, Achilles tendon; intravenous, 1 mg/kg): 103%
CN1Cc2cc(Cl)ccc2-n2c(nnc2C2CCN(c3cccc([18F])n3)CC2)C1 — tissue uptake (C57BL/6 mouse male, lung; intravenous, 3.7 MBq, 5 min): 6.86 ± 1.86 %ID/g
CSCC[C@H](NC(=O)CNC(=O)[C@H](CCCCN)NC(=O)[C@H](CC(C)C)NC(=O)[C@@H]1CCCN1C(=O)[C@H](CO)NC(=O)[C@H](Cc1c[nH]cn1)NC(=O)[C@H](Cc1c[nH]c2ccccc12)NC(=O)[C@H](CCCNC(=N)N)NC(=O)[C@H](CC(C)C)NC(=O)[C@H](CCCNC(=N)N)NC(=O)[C@H](Cc1c[nH]c2ccccc12)NC(=O)[C@H](CS)NC(=O)CCCCCNC(=O)CN1CCN(CC(=O)O)CCN(CC(=O)O)CCN(CC(=O)O)CC1)C(=O)O [copper-64 labelled] — tissue uptake (ex vivo biodistribution; C57BL/6J mice bearing B16-F10 tumours, thymus; intravenous, 1.85 MBq, 30 h): 1.32 %ID/g
COc1ccc([C@@H]2CC(=O)c3c(O)cc(O[C@@H]4O[C@H](CO)[C@@H](O)[C@H](O)[C@H]4O[C@@H]4O[C@@H](C)[C@H](O)[C@@H](O)[C@H]4O)cc3O2)cc1O — faecal recovery (male Sprague-Dawley rats, obese, faeces; oral, 100 mg/kg, 48 h; relative to: oral dose): 0.632 ± 0.02%
CCCCCCCCCCCCCC(=O)N[C@@H](CCCNC(=N)N)C(=O)N[C@@H](Cc1c[nH]c2ccccc12)C(=O)N[C@@H](CCCCN)C(=O)N[C@H](C(=O)N[C@@H](Cc1ccccc1)C(=O)N[C@@H](CCCCN)C(=O)N[C@@H](CCCCN)C(=O)N[C@H](C(=O)N[C@@H](CCC(=O)O)C(=O)N[C@@H](CCCCN)C(=O)N[C@H](C(=O)NCC(=O)N[C@@H](CCC(N)=O)C(=O)N[C@@H](CC(N)=O)C(=O)N[C@H](C(=O)N[C@@H](CCCNC(=N)N)C(=O)N[C@@H](CC(=O)O)C(=O)NCC(=O)N[C@H](C(=O)N[C@H](C(=O)N[C@@H](CCCCN)C(=O)N[C@@H](C)C(=O)NCC(=O)N1CCC[C@H]1C(=O)N[C@@H](C)C(=O)N[C@H](C(=O)N[C@@H](C)C(=O)N[C@H](C(=O)N[C@H](C(=O)NCC(=O)N[C@@H](CCC(N)=O)C(=O)N[C@@H](C)C(=O)N[C@@H](C)C(=O)N[C@H](C(=O)N[C@H](C(N)=O)[C@@H](C)CC)[C@@H](C)O)C(C)C)C(C)C)C(C)C)C(C)C)[C@@H](C)CC)[C@@H](C)CC)C(C)C)[C@@H](C)CC)[C@@H](C)CC — hemolysis (mouse erythrocytes; 50 µM, 1 h, 37 °C): ~60%
CN(C)C(=O)c1cncc(-c2cnc3[nH]cc(-c4cc(OS(=O)(=O)F)ccc4C(F)(F)F)c3c2)c1 — hydrolytic half-life (HPLC; 50 µM, 37 °C, no lysine, followed to 24 h): > 24 h
COc1ccccc1-c1n[nH]c2nc(NC3CCN(C(=O)Cc4ccc(F)cc4F)CC3)ncc12 — relative abundance (bead binding, competition bead pull-down, item: LMJF.27.0930; Leishmania donovani extract; 10 µM; relative to: vehicle): 1.16
CC(C)(C)C(=O)OCOP(=O)(OCOC(=O)C(C)(C)C)C1CCCN(O)C1=O (centres unmarked) — log GI50 (SK-MEL-5): -6.49 log M
N=C(N)NCCC[C@H](NC(=O)[C@H](CCCNC(=N)N)NC(=O)[C@H](CCCNC(=N)N)NC(=O)[C@H](CCC(N)=O)NC(=O)[C@H](CCCNC(=N)N)NC(=O)[C@H](CCCNC(=N)N)NC(=O)[C@H](CCCCN)NC(=O)[C@H](CCCCN)NC(=O)[C@H](CCCNC(=N)N)NC(=O)CNC(=O)[C@H](Cc1ccc(O)cc1)NC(=O)[C@H](Cc1ccccc1)NC(=O)[C@H](Cc1ccccc1)NC(=O)[C@H](Cc1ccccc1)NC(=O)Cc1ccc2ccccc2c1)C(=O)O — health score (C57BL/6 mice; intraperitoneal, 5 mg/kg, 6 h; direction not given): 5
CCCCCCCCCCCCCCCC(=O)N[C@@H](CCC(=O)NCCOCCOCCC(=O)NCCOCCOCCC(=O)NCCCC[C@H](NC(=O)[C@H](CC(=O)O)NC(=O)[C@H](CC(C)C)NC(=O)[C@H](Cc1ccc(O)cc1)NC(=O)[C@H](CCCCN)NC(=O)[C@H](CO)NC(=O)[C@H](Cc1ccc(O)cc1)NC(=O)[C@H](CC(=O)O)NC(=O)[C@H](CO)NC(=O)[C@@H](NC(=O)[C@H](Cc1ccccc1)NC(=O)[C@@H](NC(=O)CNC(=O)[C@H](CCC(N)=O)NC(=O)[C@@H](CO)NC(=O)[C@@H](N)Cc1c[nH]cn1)[C@@H](C)O)[C@@H](C)O)C(=O)N[C@@H](CCCNC(=N)N)C(=O)N[C@@H](CCCNC(=N)N)C(=O)N[C@@H](C)C(=O)N[C@@H](CCC(N)=O)C(=O)N[C@@H](CC(=O)O)C(=O)N[C@@H](Cc1ccccc1)C(=O)N[C@H](C(=O)N[C@@H](CCC(N)=O)C(=O)N[C@@H](Cc1c[nH]c2ccccc12)C(=O)N[C@@H](CC(C)C)C(=O)N[C@@H](CC(C)C)C(=O)N[C@@H](CC(N)=O)C(=O)N[C@H](C(=O)NCC(=O)NCC(=O)N1CCC[C@H]1C(=O)N[C@@H](CO)C(=O)N[C@@H](CO)C(=O)NCC(=O)N[C@@H](C)C(=O)N1CCC[C@H]1C(=O)N1CCC[C@H]1C(=O)N1CCC[C@H]1C(=O)N[C@@H](CO)C(N)=O)[C@@H](C)O)C(C)C)C(=O)O — serum enzyme activity (item: ALP; rhesus monkey, male; subcutaneous, 20 µg/kg once daily, 28 days): 335 ± 92.5 U/L
CC(C)C[C@@H](NC(=O)[C@@H](CCCNC(=N)N)NC(=O)[C@@H](Cc1c[nH]cn1)NC(=O)[C@@H](Cc1c[nH]c2ccccc12)NC(=O)[C@@H](Cc1c[nH]cn1)NC(=O)[C@@H](Cc1ccccc1)NC(=O)[C@H](NC(=O)[C@@H](Cc1ccc(O)cc1)NC(=O)CNC(=O)CNC(=O)CCOCCOCCOCCNC(=O)CN1CCN(CC(=O)O)CCN(CC(=O)O)CC1)[C@H](C)O)C(=O)N[C@H](CC(N)=O)C(=O)N1CCC[C@@H]1C(=O)O [gallium-68 labelled] — absorbed dose (human male, from C57BL/6 mouse, urinary bladder wall): 0.01 ± 5.77e-05 mSv/MBq
N#[11C]c1ccc(-c2csc(NN=C3CCCC3)n2)cc1 — unchanged compound (radio-HPLC; C57BL/6 mouse, liver; intravenous, 37 MBq, 15 min): 4.59% and 5%
CC(C)[C@@H]1NC(=O)CNC(=O)[C@H](CC(N)=O)NC(=O)[C@H](CCCNC(=N)N)NC(=O)[C@H](Cc2ccc(O)cc2)NC(=O)[C@H](C(C)C)NC(=O)[C@@H](NC(=O)[C@@H](NC(=O)[C@H](CC(N)=O)NC(=O)[C@H](Cc2c[nH]c3ccccc23)NC(=O)[C@H](C)NC(=O)[C@H](Cc2ccccc2)NC(=O)CNC(=O)[C@H](CCCCN)NC(=O)[C@H](Cc2ccccc2)NC(=O)[C@H](Cc2ccccc2)NC(=O)[C@H](CCCCN)NC(=O)OCC2c3ccccc3-c3ccccc32)C(C)C)CSSC[C@@H](C(=O)N[C@@H](Cc2c[nH]cn2)C(=O)N[C@@H](CCCNC(=N)N)C(=O)N[C@@H](CCCNC(=N)N)C(=O)N[C@@H](C)C(=O)N[C@@H](CC(N)=O)C(N)=O)NC(=O)[C@H](C(C)C)NC(=O)[C@H](CCCNC(=N)N)NC1=O — lachrymation score (ICR mouse; ip, 5 mg/kg; direction not given): 0
CC(C)[C@H](NC(=O)[C@@H](NC(=O)[C@H](CCCNC(=N)N)NC(=O)[C@H](CCCNC(=N)N)NC(=O)[C@H](CCCNC(=N)N)NC(=O)[C@H](CCC(N)=O)NC(=O)[C@H](CCCNC(=N)N)NC(=O)[C@H](CCCNC(=N)N)NC(=O)[C@H](CCCCN)NC(=O)[C@H](CCCCN)NC(=O)[C@H](CCCNC(=N)N)NC(=O)CN)[C@@H](C)O)C(=O)N[C@H](C(=O)N[C@@H](CO)C(=O)N1CCC[C@H]1C(=O)O)[C@@H](C)O — organ weight (ICR mice, female, lung; intranasal, 5 mg/kg daily, 4 weeks): 0.361 ± 0.103 g
CCCC[C@H]1C(=O)N(C)[C@@H](CCCC)C(=O)N[C@@H](CCCNC(=O)CN2CCN(CC(=O)O)CCN(CC(=O)O)CCN(CC(=O)O)CC2)C(=O)N[C@H](C(=O)NCC(N)=O)CSCC(=O)N[C@@H](Cc2ccc(O)cc2)C(=O)N(C)[C@@H](C)C(=O)N[C@@H](CC(N)=O)C(=O)N2CCC[C@H]2C(=O)N[C@@H](Cc2c[nH]cn2)C(=O)N[C@@H](CC(C)C)C(=O)N(C)CC(=O)N[C@@H](Cc2c[nH]c3ccccc23)C(=O)N[C@@H](CO)C(=O)N[C@@H](Cc2c[nH]c3ccccc23)C(=O)N1C [gallium-68 labelled] — tissue uptake (NOD/SCID mice with CHO-hPD-L1 xenograft, pancreas; 30 min post injection): 1.48 ± 0.08 %ID/g
